Measured values collected from several papers.
Parts stem from different laboratories: compare values within a part only.

Study 1 — technique: protein-binding microarray; molecule type: double-stranded DNA, one strand shown; matrix: in vitro; tested at: 2200 nM top; notes: 60-bp whole probe; added: salmon DNA 0.4 mg/ml; relative to: random background probes; direction: higher = stronger binding; shared flanks, not repeated: GCCTAGCAC … GTCTTGATTCGCTTGACGCTGCTG
Target: Interferon regulatory factor 7, full length, phosphomimetic (IRF7, Homo sapiens, UniProt Q92985, residues 1-503, S471D/S472D/S475D/S476D/S477D/S483D/S484D/S487D)
UniProt Q92985, sequence (whole entry, unmodified, looked up): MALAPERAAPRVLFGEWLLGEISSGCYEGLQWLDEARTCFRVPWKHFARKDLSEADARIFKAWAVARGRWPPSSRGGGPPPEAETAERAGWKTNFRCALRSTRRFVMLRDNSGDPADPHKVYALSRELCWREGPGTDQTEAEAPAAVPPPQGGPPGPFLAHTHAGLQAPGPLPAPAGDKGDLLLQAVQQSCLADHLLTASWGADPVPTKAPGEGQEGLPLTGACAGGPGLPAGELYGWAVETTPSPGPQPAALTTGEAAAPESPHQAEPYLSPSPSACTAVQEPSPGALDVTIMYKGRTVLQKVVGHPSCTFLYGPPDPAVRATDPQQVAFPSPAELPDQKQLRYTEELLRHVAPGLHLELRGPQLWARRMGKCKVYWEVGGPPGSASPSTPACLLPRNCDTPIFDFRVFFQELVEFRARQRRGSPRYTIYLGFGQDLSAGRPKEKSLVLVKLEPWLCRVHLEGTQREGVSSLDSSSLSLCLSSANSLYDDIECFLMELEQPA
Under “fitted relative affinity”, `TTGGGACTGGGTCTCGGTTAGTGCTAG` is recorded as -0.534 z-score.
For `GAGGATTTCGGGTTTCGAGACGTGCTA`, “fitted relative affinity” read 4.15 z-score.
`GGGCCCATCATTCCGACCCTGTGCTAG`: “fitted relative affinity” -0.801 z-score.
`TTAGGTTCCCTTTTCCATTAGTGCTAG`: “fitted relative affinity” 3.17 z-score.
`TCACATTTTCATTTTGTACTGTGCTAG` — result for “fitted relative affinity”: 5.33 z-score.
Under “fitted relative affinity”, `TTCGATTTCGGGACTGGATTAGTGCTA` is recorded as 2.76 z-score.
`TTAGGTATCGGGTATCCGTTAGTGCTA` — result for “fitted relative affinity”: 0.367 z-score.
`TCACATTGAGATTTTCATACTGTGCTA`: “fitted relative affinity” 0.981 z-score.
For `TTAGGACAGCTTATCCTTTAGTGCTAG`, “fitted relative affinity” read -0.153 z-score.
Under “fitted relative affinity”, `AAGAATCAGGGGTTTTATCCGTGCTAG` is recorded as -0.0993 z-score.

Study 2 — technique: competition protein-binding microarray; molecule type: double-stranded DNA, one strand shown; matrix: in vitro; tested at: 2 µM; added: Pho4 competitor, 0.05 µM; direction: higher = stronger binding
Target: Centromere-binding protein 1, full length, His-tagged (CBF1, Saccharomyces cerevisiae, UniProt P17106, residues 1-351)
UniProt P17106, sequence (whole entry, looked up): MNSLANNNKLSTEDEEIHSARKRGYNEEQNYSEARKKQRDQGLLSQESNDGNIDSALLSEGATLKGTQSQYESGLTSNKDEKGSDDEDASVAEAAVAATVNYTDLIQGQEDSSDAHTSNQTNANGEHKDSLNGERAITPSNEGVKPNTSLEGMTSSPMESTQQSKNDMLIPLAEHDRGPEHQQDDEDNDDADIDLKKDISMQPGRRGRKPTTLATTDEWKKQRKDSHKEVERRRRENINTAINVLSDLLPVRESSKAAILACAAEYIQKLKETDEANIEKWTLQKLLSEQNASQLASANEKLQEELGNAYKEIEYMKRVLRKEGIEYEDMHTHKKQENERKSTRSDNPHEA
Notes: whole 60-bp probe, lowest competitor level
With `AAAGCGGTAATTTGCTACGTGGGTGCAGATATCTATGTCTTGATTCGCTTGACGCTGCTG` the fluorescence intensity was 79 a.u.
`AGGTCGTCGAGGACGCCCGCGACGCAGTCAAACAGGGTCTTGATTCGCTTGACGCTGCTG` has a fluorescence intensity of 57.8 a.u.
For `TTACTGACGTTATTGAACGTGAGATTATTTTGCTTGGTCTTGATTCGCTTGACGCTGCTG`, the fluorescence intensity was 95.2 a.u.
`CAACCGCATCGGCTCAACCTGATCTTGCAATTAGCAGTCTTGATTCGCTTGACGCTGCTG` has a fluorescence intensity of 68.3 a.u.
For `GGTTATGGCCTGGATGACCTGTTTTCAATTCAGACAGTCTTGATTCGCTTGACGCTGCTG`, the fluorescence intensity was 67.9 a.u.
The fluorescence intensity of `CATACCCAACCTTTTCACGTGTTGTAAGATATTTGTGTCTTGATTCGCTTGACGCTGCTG` is reported as 997 a.u.
With `ATAATAAAGAATGGTGATGTGATGGTATTCAACTTGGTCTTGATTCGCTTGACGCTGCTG` the fluorescence intensity was 96.7 a.u.
`AGTAATTGTACGATGCACGTGCAAAAAAAGTGCTCAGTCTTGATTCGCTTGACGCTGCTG` gave a fluorescence intensity of 4140 a.u.
For `CATACCCAACCTTGTTAGGTGGGTGAAGATATTTGTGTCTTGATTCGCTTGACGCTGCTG`, the fluorescence intensity was 56.5 a.u.
The fluorescence intensity of `AAATTACTAAGTTGTTTTGTGGGTGACGCCGTATGAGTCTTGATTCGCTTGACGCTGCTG` is reported as 73.5 a.u.
For `ATTGATCCCTGCTGTCATGCCCCTCACCTTCATTCGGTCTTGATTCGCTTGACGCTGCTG`, the fluorescence intensity was 63.1 a.u.
`GTAATACAGAGGCTTCATGTGACGGGAGAAAGGAGAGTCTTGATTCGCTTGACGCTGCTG` gave a fluorescence intensity of 229 a.u.
With `CTTTCCCGATCTTGGCTCGTGGGTGTAGCACATTTGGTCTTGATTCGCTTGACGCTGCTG` the fluorescence intensity was 76.2 a.u.
`GAGCGGGATTCCCATCACGTGGTGATGGGATAATGCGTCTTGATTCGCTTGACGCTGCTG` has a fluorescence intensity of 3520 a.u.

Study 3 — technique: RNA Bind-n-Seq; molecule type: RNA; matrix: in vitro; tested at: not given; relative to: input RNA pool; direction: higher = stronger binding
Target: RING finger protein unkempt homolog, zinc fingers 1-6, GST-SBP tag (UNK, Homo sapiens, UniProt Q9C0B0, residues 30-357)
UniProt Q9C0B0, sequence (30-357, looked up): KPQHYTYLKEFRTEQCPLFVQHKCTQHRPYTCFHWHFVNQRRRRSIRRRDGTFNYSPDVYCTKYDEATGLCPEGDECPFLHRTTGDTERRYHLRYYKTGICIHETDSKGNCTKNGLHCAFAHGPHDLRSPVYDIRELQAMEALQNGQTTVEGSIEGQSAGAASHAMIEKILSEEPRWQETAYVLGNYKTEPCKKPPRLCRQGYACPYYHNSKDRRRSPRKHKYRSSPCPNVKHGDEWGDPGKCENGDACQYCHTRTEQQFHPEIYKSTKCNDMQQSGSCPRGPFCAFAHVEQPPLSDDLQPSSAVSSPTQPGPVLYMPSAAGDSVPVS
Notes: RNA with constant flanks, human and mouse sites, ends assumed
`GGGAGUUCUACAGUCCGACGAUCCACUGCGAAAAUUCAUUCCGCUGUAAUGUUUUCACAAUAUUUAAAGCAGAAGCACGUCAGUUAGGAUUUCCUUCUGCAUAAGGUUUUUUUGUAGUGUAAUGUCUUAAUCAUAGUCUACCACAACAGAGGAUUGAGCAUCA` has a bound/input enrichment of 1.49 ratio.
For `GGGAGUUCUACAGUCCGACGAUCCUAGGUUGGCAGUUGACUAGUCAGGAAACCCAUGAGCUACAAAGUUGCUUAAAGCAAAUUAUUAGAAACAUAAAAUUCAAAGCACCUCCAUGUAACACUUUUGUGGAUCUGACUUCUGCACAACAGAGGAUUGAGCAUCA`, the bound/input enrichment was 0.742 ratio.
The bound/input enrichment of `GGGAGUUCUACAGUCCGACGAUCACAGCCAUGGCAACUAGUCUCACGAACGUAGGAAAUUCAUUUAGUGGCCCACCUAAUCCUUUAGUGUCUAGAUCUAGUAAGUUUCAGAACUCAUCAGUAGAAGAUGAUGAUGACGUUGUUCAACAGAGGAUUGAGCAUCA` is reported as 84.1 ratio.
For `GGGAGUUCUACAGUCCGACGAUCAUGCAGUGGCUUGGGAAACAUGUGGACUCCGAGGGAGAAAUAAAAUCCGGCCAGCUCUCUCUUAGAUUUGUUUCAUCCUACGUGUCUGAAGUAGAAAUAACCCCAUCUUGUAUACCUGUGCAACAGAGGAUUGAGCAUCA`, the bound/input enrichment was 1.42 ratio.
For `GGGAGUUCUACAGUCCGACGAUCUCGGUACUUGAUGCAGCUCUUCAUCCUCCACCCCGCGGACCUUUUCCUCCAGGAGAUCUUUUCAGUCAGCCAGAAAGACCUUUUCUGGCCCCUGGAAGACCAAGUAUAGACAAUGUUCCCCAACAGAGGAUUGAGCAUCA`, the bound/input enrichment was 0.258 ratio.
The bound/input enrichment of `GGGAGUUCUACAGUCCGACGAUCCGGAGCCCUGGUCAGCAUAGCCGCCCACGGUCUGUUCUCAGAUUCCUAAUCAUUCCAGAAGUAUUAAACGUCAUUGCUGCAAACCUCGGCAGGUGCCGUGUGAGGGGCUUAAUGACCACCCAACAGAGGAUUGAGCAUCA` is reported as 0.16 ratio.
With `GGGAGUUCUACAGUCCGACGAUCAAAACCAUCAAGCUAUGGAAUACCCUGGGUGUGUGCAAAUACACUGUCCAGGAUGAGAGCCACUCAGAGUGGGUGUCUUGUGUCCGCUUCUCGCCCAACAGCAGCAACCCUAUCAUCGUCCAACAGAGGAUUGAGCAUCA` the bound/input enrichment was 0.116 ratio.
With `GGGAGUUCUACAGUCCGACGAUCGGAGCACUCAAAUCAGUGGGAAUUACAAUUUUUCUUUUUUGAAAAAAGACACUUUUUAAAAAAUUUUAUUUAUUUAAUGUAUGAGUGCUCUGCUGCAUAUACAUCUGCCUGCCUGAAGAACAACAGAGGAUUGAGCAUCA` the bound/input enrichment was 1.4 ratio.
The bound/input enrichment of `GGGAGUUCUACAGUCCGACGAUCUCCCUUUCCUUCUCUACCGAUUUUGCACUUUUCUCUAUGCUCACCACCAAGUGUAAUCAAUAACAAGCACUGACAAUACAUAGCAAUAGUGAAAUCUGAAAUAACUAAGAAUUAGGUACUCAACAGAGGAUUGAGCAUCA` is reported as 0.645 ratio.
The bound/input enrichment of `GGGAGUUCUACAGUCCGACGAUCCUGCGAAGACAGCUGGCAGAACUCAACAAAAAUCCAGUGGAAGGCUUUUCAGCAGGUUUAAUAGACGACAAUGAUCUCUAUCGUUGGGAAGUCCUUAUUAUUGGUCCUCCAGAUACACUUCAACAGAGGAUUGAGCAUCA` is reported as 0.106 ratio.

Mixed results
`PhoQ, residues 284 288 289 292 302 303 SLSVQF` has a fold induction of 15.8 (PhoP, residues 12 14 15 18 19 HEGLL (Escherichia coli, UniProt P23836); Sort-seq, measured: YFP reporter; E. coli; PhoQ-PhoP variant library, added: 10 µM Mg2+; relative to: high Mg2+ state, higher = stronger signaling).

For quick reference, copied from above (study 1):
Under “fitted relative affinity”, `TTGGGACTGGGTCTCGGTTAGTGCTAG` is recorded as -0.534 z-score.
`TTAGGTATCGGGTATCCGTTAGTGCTA` — result for “fitted relative affinity”: 0.367 z-score.
Under “fitted relative affinity”, `AAGAATCAGGGGTTTTATCCGTGCTAG` is recorded as -0.0993 z-score.
`TCACATTGAGATTTTCATACTGTGCTA`: “fitted relative affinity” 0.981 z-score.
